# Measurements pooled from the literature.
# Compare with care: the assays were run in different laboratories. Several values in a cell are separate wells, animals, samples, runs or records. Numbers after ± are the reported error.
Structure (SMILES),assay,system,conditions,scale,measurement,value
C[C@H](Oc1ccc(Br)cc1-c1ccon1)C(=O)O,response latency,"human, tibialis anterior muscle","100 mg, 30 Hz+30 s",,difference from placebo,1.17%
CCCN(O)N=Nc1ccc(S(=O)(=O)Nc2onc(C)c2C)cc1,carrageenan-induced paw edema,Wistar rat,"oral, 100 mg/kg, 0 h (baseline), together with: carrageenan 1% subplantar",higher = more edema,paw edema volume,3.22 ± 0.56 a.u.
CC1(C)CCC(CN2CCN(c3ccc(C(=O)NS(=O)(=O)c4ccc(NCC5CCOCC5)c([N+](=O)[O-])c4)c(Oc4cnc5[nH]ccc5c4)c3)CC2)=C(c2ccc(Cl)cc2)C1,cell killing,"canine lymph node CD3+ T cells, dog 39",24 h,,EC50,48 nM
O=C(O)CNC(=O)Cc1ccccc1,,"ventricular cardiomyocytes, C57BL/6 mouse","dose not given, 0.6 s",,sarcomere length,1.67 µm
Cc1cn(-c2ccc3n(c2=O)CCN([C@@H](C)[C@@H]2CC[C@H](c4cc(F)c(Cl)cc4C(F)(F)F)O2)C3=O)cn1,,"human, CSF","200 mg once daily, 14 days, multiple dose, single LP",baseline: placebo,CSF Aβ38 increase,46.5%
COc1ccc(NC(=O)c2ccc(-n3cc(CNc4nc(OC)nc(OC)n4)nn3)cc2)cc1,"cell viability, MTT","normal colonocytes, rat",72 h,,IC50,116 ± 1.53 nM
C=CCn1c(=O)c2cnc(Nc3ccc(N4CCN(C)CC4)cc3)nc2n1-c1ccc2c(n1)[C@@](O)(CC)CC2,immunohistochemistry,"mouse, OVCAR-3 xenograft, tumour","100 mg/kg, dosed 3 days",,time to γH2AX decrease,≤ 24 h
COc1cc(Nc2ncc3c(n2)-c2ccc(Cl)cc2C(c2c(F)cccc2OC)=NC3)ccc1C(=O)O,,"mouse, NB-1643 neuroblastoma xenograft","oral, 2.6 mg/kg, day 14",baseline: vehicle,relative tumour volume T/C,3.08
CC#CC(=O)N[C@H]1CCCN(c2c(F)cc(C(N)=O)c3[nH]c(C)c(C)c23)C1,item: IgA,human,"0.3 mg once daily, day 21",baseline: baseline,serum immunoglobulin,-1.3 % change
Cc1noc(NS(=O)(=O)c2ccc(N=NN(O)c3ccccc3)cc2)c1C,carrageenan-induced paw edema,Wistar rat,"oral, 100 mg/kg, 1 h after carrageenan, together with: carrageenan 1% subplantar",higher = more edema,paw edema volume,5.31 ± 0.46 a.u.
NCC(=O)Nc1cncc(-c2nn3c(=O)cc(N4CCNCC4)nc3s2)c1,"ADP-induced platelet aggregation, light transmission aggregometry",stable CAD patients on aspirin,"subcutaneous, 0.04 mg/kg, 180 min post-dose, together with: ADP 20 µM",,inhibition of platelet aggregation,3%
CCN(O)N=Nc1ccc(S(=O)(=O)Nc2onc(C)c2C)cc1,carrageenan-induced paw edema,Wistar rat,"oral, 100 mg/kg, 3 h after carrageenan, together with: carrageenan 1% subplantar",higher = more edema,paw edema volume,5.21 ± 0.63 a.u.
NC(=O)c1cnc2[nH]ccc2c1N[C@@H]1[C@@H]2CC3C[C@H]1C[C@@](O)(C3)C2,flow cytometry,"Japanese healthy men, blood","oral, 10 mg twice daily, 72 h after day 7 dose",baseline: baseline,CD8+ naive T-cell change,-1.45%
COc1ccccc1[C@H](Cn1c(=O)n(C(C)(C)C(=O)O)c(=O)c2c(C)c(-c3ncco3)sc21)OC1CCOCC1,,human,"20 mg, post-treatment",,serum total cholesterol,208 ± 36.9 mg/dL
N#Cc1ccc2c(c1)[C@H]1CCCN(C(=O)c3ccc4[nH]cnc4c3)[C@H]1C2,item: LDL,human,"80 mg once daily, day 28, adjusted mean",baseline: placebo,change from baseline,-16 ± 5.6 mg/dL
Cc1ccc(N(O)N=Nc2ccc(S(=O)(=O)Nc3onc(C)c3C)cc2)cc1,carrageenan-induced paw edema,Wistar rat,"oral, 100 mg/kg, 3 h after carrageenan, together with: carrageenan 1% subplantar",higher = more edema,paw edema volume,4.89 ± 0.43 a.u.
c1ccc(-c2n[nH]cc2-c2ccnc3ccccc23)nc1,"kinase binding, competitor, MIB/MS competition, item: PBS2",Candida albicans cell lysate,10 µM,baseline: DMSO,log2 fold change,1.55
COc1cc(/C=C/C(=O)N2CCC=CC2=O)cc(OC)c1OC,"qRT-PCR, item: NFE2L1","nude mouse MDA-MB-468 xenograft, tumour","15 mg/kg, 21 days, normalised to beta-actin, unit not given",baseline: vehicle,mRNA level,0.614
[Cl-].[Cl-].[Pt+2].[Ru+2].c1ccc(-c2nccnc2-c2ccccn2)nc1.c1cnc2c(c1)ccc1cccnc12.c1cnc2c(c1)ccc1cccnc12,photoinduced DNA cleavage,supercoiled pcDNA,"250 µM, 0.1 µM pcDNA",,nicked circular DNA,23.9%
Cc1cc(C)c(CNC(=O)c2cc(Cl)c3c(c2C)O[C@@](C)([C@H]2CC[C@H](N(C)C)CC2)O3)c(=O)[nH]1,IWG criteria,relapsed/refractory PTCL-NOS patients,dose not given,,stable disease as best response,12%
CN1CC(Oc2cnc(C#N)cc2-c2ccn3nc(NC(=O)C4CC4)cc3c2)C1,"item: IL-1β, IL-6, TNF","Rag2-/- mouse, anti-CD40 colitis","dose not given, day 7",,colon cytokine levels,decreased
OC(CCN1CCCCC1)(c1ccccc1)C1CC2C=CC1C2 (centres unmarked),resting-state EEG,healthy elderly humans,"oral, 2 mg, eyes open, LS mean",,"power, EEG, Alpha, O2-Pz",9.9 µV²
CCN(O)N=Nc1ccc(S(=O)(=O)Nc2cc(C)on2)cc1,carrageenan-induced paw edema,Wistar rat,"oral, 100 mg/kg, 0 h (baseline), together with: carrageenan 1% subplantar",higher = more edema,paw edema volume,3.4 ± 0.12 a.u.
N[C@@H](CC(=O)N1CCn2c(nnc2C(F)(F)F)C1)Cc1cc(F)c(F)cc1F,oral glucose tolerance test,ob/ob mouse,"oral, 10 mg/kg, -30 min, together with: glucose 2 g/kg",,glucose lowering,17%
Cc1n[nH]c2ccc(-c3cc(OC[C@@H](N)Cc4ccccc4)cnc3-c3ccoc3)cc12,"kinase binding, competitor, MIB/MS competition, item: MCK1",Candida albicans cell lysate,10 µM,baseline: DMSO,log2 fold change,-1.02
C[C@@H](O)CCOC(=O)C[C@@H](C)O,item: Cit,"human, plasma","60 min, log2-transformed values",,metabolite level,5.09 ± 0.59 µmol/L
CN[C@@H]1COc2c(S(=O)(=O)NC(=O)Nc3c4c(cc5c3CCC5)CCC4)cnn2C1,item: IL-1β,"human participants, whole blood ex vivo","1800 mg single dose, 1 h, together with: LPS/ATP",baseline: baseline,inhibition,99.9%
Cc1cc(F)cc2c(CCC(=O)N[C@@H]3C(=O)NC[C@H]3O)c(-c3ccc(F)cc3)[nH]c12,,"mice, APOL1 G2, single copy","day 5, before treatment, together with: IFNγ plasmid injection",,UACR,738 µg/mg and 963 µg/mg and 2210 µg/mg and 767 µg/mg and 565 µg/mg and 1400 µg/mg
COc1cc(F)c([C@@H]2CNC(=O)[C@H]2NC(=O)Nc2ccccc2)c(F)c1,LV haemodynamics,"rat, myocardial ischaemia-reperfusion","1 mg/kg, 1008 h, 6 weeks post-injury",,isovolumic relaxation time,12 ± 2 ms
NC/C(=C\F)COc1cccc(Cn2c(=S)[nH]c(=O)c3[nH]cnc32)c1,,"mouse, carrageenan air pouch, air pouch exudate","3 mg/kg, 12 h",,total white blood cell count,5.3e+07 and 8.8e+07 and 5.7e+07 and 3.3e+07 and 7.9e+07
N#Cc1ccn2c(-c3ccncc3)c(-c3ccc(F)cc3)nc2c1,"kinase binding, competitor, MIB/MS competition, item: RIM8",Candida albicans cell lysate,1 µM,baseline: DMSO,log2 fold change,-0.00826
O=C(OC(C(F)(F)F)C(F)(F)F)N1CCN(Cc2cccc(Oc3ccccc3)c2)CC1,PET blocking study,"rhesus monkey, brain CB","0.1 mg/kg, compound pretreatment, together with: [18F]T-401 tracer",,k4,0.145 min⁻¹
O=C(COc1ccc(Cl)cc1)NC12CC(c3nnc([C@H]4C[C@@H](OC(F)(F)F)C4)o3)(C1)C2,,"healthy human, PBMC","200 mg once daily, day 15, 24 h post-dose, median, together with: sodium arsenite ex vivo",baseline: baseline,ATF4 protein change,-72.6%
Cc1c(NC(=O)c2cccnc2)c(=O)n(-c2ccccc2)n1C,histology,"Dmd C3333Y mice, quadriceps",dose not given,,centrally nucleated fibres,48% and 59% and 55% and 63% and 61%
CCCN(O)N=Nc1ccc(S(=O)(=O)Nc2nccs2)cc1,carrageenan-induced paw edema,Wistar rat,"oral, 100 mg/kg, 4 h after carrageenan, together with: carrageenan 1% subplantar",higher = more edema,paw edema volume,4.22 ± 0.89 a.u.
CC(C)NCC(O)c1ccc(O)c(O)c1 (centres unmarked),,"ventricular cardiomyocytes, C57BL/6 mouse","dose not given, 0.32 s",,sarcomere length,1.72 µm
COc1ccc(-c2cncc(N[C@@H](C)c3cccc(NC(=O)c4cncc(C)c4)c3)n2)cc1OC,item: rno-miR-25-3p,"rat SU5416/hypoxia model, lung",dose not given,baseline: SU5416/hypoxia vehicle,fold change,1.51
NCCc1c[nH]c2ccc(O)cc12,GCaMP6f imaging,"choroid plexus epithelial cells, awake mice","intraperitoneal, 3 mg/kg",,duration of calcium response,≥ 60 min

# A few entries again:
Structure (SMILES),assay,system,conditions,scale,measurement,value
COc1cc(F)c([C@@H]2CNC(=O)[C@H]2NC(=O)Nc2ccccc2)c(F)c1,LV haemodynamics,"rat, myocardial ischaemia-reperfusion","1 mg/kg, 1008 h, 6 weeks post-injury",,isovolumic relaxation time,12 ± 2 ms
CCCN(O)N=Nc1ccc(S(=O)(=O)Nc2onc(C)c2C)cc1,carrageenan-induced paw edema,Wistar rat,"oral, 100 mg/kg, 0 h (baseline), together with: carrageenan 1% subplantar",higher = more edema,paw edema volume,3.22 ± 0.56 a.u.
COc1cc(/C=C/C(=O)N2CCC=CC2=O)cc(OC)c1OC,"qRT-PCR, item: NFE2L1","nude mouse MDA-MB-468 xenograft, tumour","15 mg/kg, 21 days, normalised to beta-actin, unit not given",baseline: vehicle,mRNA level,0.614
